Results from different studies.
± gives the spread as reported. Square brackets hold non-standard residues; d marks the D form. Where no end group is shown, it is not given here. Ends that are not written are not given here. [ ]: non-standard residue; d: D form.
B1: Nup98 732-880 (Mus musculus, UniProt Q6PFD9); sequence looked up; chain AGIVLTKVGYYTIPSMDDLAKITNEKGECIVSDFTIGRKGYGSIYFEGDVNLTNLNLDDIVHIRRKEVIVYVDDNQKPPVGEGLNRKAEVTLDGVWPTDKTSRCLIKSPDRLADINYEGRLEAVSRKQGAQFKEYRPETGSWVFKVSHF
B2: CRYAB (Homo sapiens, UniProt P02511); chain MDIAIHHPWIRRPFFPFHSPSRLFDQFFGEHLLESDLFPTSTSLSPFYLRPPSFLRAPSWFDTGLSEMRLEKDRFSVNLDVKHFSPEELKVKVLGDVIEVHGKHEERQDEHGFISREFHRKYRIPADVDPLTITSSLSSDGVLTVNGPRKQVSGPERTIPITREEKPAVTAAPKK
B3: PAC1 (Saccharomyces cerevisiae, UniProt P39946); dye-labeled SNAP tag; sequence looked up; chain MTNWQQQLPLTDTQKNELDKSVLRYLNWNYKQTVRHEHAQDYESVRHAIVTLSGFLLQESVDRQEFISNNDTSNESMVDIDELLLPKKWNSIVRLQKKIIELEQNTETLVSQIKDLNTQVSELAQFKPTTSNGTSAHNVLKWIPRNLPSCLINVESSVTSVKLHPNLPIVFVATDHGKLYAFDLFNYTIPLASLQSHTKAITSMDVLFTNYTNSSKKNYLVIVTASKDLQIHVFKWVSEECKFQQIRSLLGHEHIVSAVKIWQKNNDVHIASCSRDQTVKIWDFHNGWSLKTFQPHSQWVRSIDVLGDYIISGSHDTTLRLTHWPSGNGLSVGTGHEFPIEKVKFIHFIEDSPEIRFRTPSTDRYKNWGMQYCVSASRDRTIKIWEIPLPTLMAHRAPIPNPTDSNFRCVLTLKGHLSWVRDISIRGQYLFSCADDKSVRCWDLNTGQCLHVWEKLHTGFVNCLDLDVDFDSNVTPRQMMVTGGLDCKSNVFMR
B4: DIS3 1-1001 D171N/D551N (Saccharomyces cerevisiae, UniProt Q08162); chain MSVPAIAPRRKRLADGLSVTQKVFVRSRNGGATKIVREHYLRSDIPCLSRSCTKCPQIVVPDAQNELPKFILSDSPLELSAPIGKHYVVLDTNVVLQAIDLLENPNCFFDVIVPQIVLDEVRNKSYPVYTRLRTLCRDSDDHKRFIVFHNEFSEHTFVERLPNETINDRNNRAIRKTCQWYSEHLKPYDINVVLVTNDRLNREAATKEVESNIITKSLVQYIELLPNADDIRDSIPQMDSFDKDLERDTFSDFTFPEYYSTARVMGGLKNGVLYQGNIQISEYNFLEGSVSLPRFSKPVLIVGQKNLNRAFNGDQVIVELLPQSEWKAPSSIVLDSEHFDVNDNPDIEAGDDDDNNESSSNTTVISDKQRRLLAKDAMIAQRSKKIQPTAKVVYIQRRSWRQYVGQLAPSSVDPQSSSTQNVFVILMDKCLPKVRIRTRRAAELLDKRIVISIDSWPTTHKYPLGHFVRDLGTIESAQAETEALLLEHDVEYRPFSKKVLECLPAEGHDWKAPTKLDDPEAVSKDPLLTKRKDLRDKLICSIDPPGCVDINDALHAKKLPNGNWEVGVHIADVTHFVKPGTALDAEGAARGTSVYLVDKRIDMLPMLLGTDLCSLKPYVDRFAFSVIWELDDSANIVNVNFMKSVIRSREAFSYEQAQLRIDDKTQNDELTMGMRALLKLSVKLKQKRLEAGALNLASPEVKVHMDSETSDPNEVEIKKLLATNSLVEEFMLLANISVARKIYDAFPQTAMLRRHAAPPSTNFEILNEMLNTRKNMSISLESSKALADSLDRCVDPEDPYFNTLVRIMSTRCMMAAQYFYSGAYSYPDFRHYGLAVDIYTHFTSPIRRYCDVVAHRQLAGAIGYEPLSLTHRDKNKMDMICRNINRKHRNAQFAGRASIEYYVGQVMRNNESTETGYVIKVFNNGIVVLVPKFGVEGLIRLDNLTEDPNSAAFDEVEYKLTFVPTNSDKPRDVYVFDKVEVQVRSVMDPITSKRKAELLLK
B5: RRP6 128-634 (Saccharomyces cerevisiae, UniProt Q12149); sequence looked up; chain RVEKPQLKFKSPIDNSESHPFIPLLKEKPNALKPLSESLRLVDDDENNPSHYPHPYEYEIDHQEYSPEILQIREEIPSKSWDDSVPIWVDTSTELESMLEDLKNTKEIAVDLEHHDYRSYYGIVCLMQISTRERDYLVDTLKLRENLHILNEVFTNPSIVKVFHGAFMDIIWLQRDLGLYVVGLFDTYHASKAIGLPRHSLAYLLENFANFKTSKKYQLADWRIRPLSKPMTAYARADTHFLLNIYDQLRNKLIESNKLAGVLYESRNVAKRRFEYSKYRPLTPSSEVYSPIEKESPWKILMYQYNIPPEREVLVRELYQWRDLIARRDDESPRFVMPNQLLAALVAYTPTDVIGVVSLTNGVTEHVRQNAKLLANLIRDALRNIKNTNEEATPIPSSETKADGILLETISVPQIRDVMERFSVLCNSNISKSRAKPVTNSSILLGKILPREEHDIAYSKDGLPNKVKTEDIRIRAQNFKSALANLEDIIFEIEKPLVVPVKLEEIK
B6: UGT1A9 (Homo sapiens, UniProt O60656); chain GKLLVVPMDGSHWFTMRSVVEKLILRGHEVVVVMPEVSWQLGRSLNCTVKTYSTSYTLEDLDREFKAFAHAQWKAQVRSIYSLLMGSYNDIFDLFFSNCRSLFKDKKLVEYLKESSFDAVFLDPFDNCGLIVAKYFSLPSVVFARGILCHYLEEGAQCPAPLSYVPRILLGFSDAMTFKERVRNHIMHLEEHLLCHRFFKNALEIASEILQTPVTEYDLYSHTSIWLLRTDFVLDYPKPVMPNMIFIGGINCHQGKPLPMEFEAYINASGEHGIVVFSLGSMVSEIPEKKAMAIADALGKIPQTVLWRYTGTRPSNLANNTILVKWLPQNDLLGHPMTRAFITHAGSHGVYESICNGVPMVMMPLFGDQMDNAKRMETKGAGVTLNVLEMTSEDLENALKAVINDKSYKENIMRLSSLHKDRPVEPLDLAVFWVEFVMRHKGAPHLRPAAHDLTWYQYHSLDVIGFLLAVVLTVAFITFKCCAYGYRKCLGKKGRVKKAHKSKTH
B7: CDKN1B 25-93 Y74E/Y88E/Y89E (Homo sapiens, UniProt P46527); sequence looked up; chain KPSACRNLFGPVDHEELTRDLEKHCRDMEEASQRKWNFDFQNHKPLEGKEEWQEVEKGSLPEFEERPPR
B8: BAK1 26-225 F60A/H61A (Arabidopsis thaliana, UniProt Q94F62); sequence looked up; chain NAEGDALSALKNSLADPNKVLQSWDATLVTPCTWAAVTCNSDNSVTRVDLGNANLSGQLVMQLGQLPNLQYLELYSNNITGTIPEQLGNLTELVSLDLYLNNLSGPIPSTLGRLKKLRFLRLNNNSLSGEIPRSLTAVLTLQVLDLSNNPLTGDIPVNGSFSLFTPISFANTKLTPLPASPPPPISPTPPSPAGSNRITG
UniProt Q12099, sequence (whole entry, looked up): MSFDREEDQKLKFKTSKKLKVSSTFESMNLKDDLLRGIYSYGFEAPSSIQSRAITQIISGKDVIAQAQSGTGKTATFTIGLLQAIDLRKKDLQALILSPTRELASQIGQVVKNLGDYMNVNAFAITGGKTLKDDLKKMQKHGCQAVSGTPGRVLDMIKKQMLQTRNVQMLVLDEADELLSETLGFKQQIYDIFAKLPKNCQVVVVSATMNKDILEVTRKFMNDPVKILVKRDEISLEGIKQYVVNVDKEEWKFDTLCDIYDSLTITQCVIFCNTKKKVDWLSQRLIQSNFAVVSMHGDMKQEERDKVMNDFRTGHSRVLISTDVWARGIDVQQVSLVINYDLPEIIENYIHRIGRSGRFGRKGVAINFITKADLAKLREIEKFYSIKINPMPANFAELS
UniProt Q9UQ84, sequence (whole entry, unmodified, looked up): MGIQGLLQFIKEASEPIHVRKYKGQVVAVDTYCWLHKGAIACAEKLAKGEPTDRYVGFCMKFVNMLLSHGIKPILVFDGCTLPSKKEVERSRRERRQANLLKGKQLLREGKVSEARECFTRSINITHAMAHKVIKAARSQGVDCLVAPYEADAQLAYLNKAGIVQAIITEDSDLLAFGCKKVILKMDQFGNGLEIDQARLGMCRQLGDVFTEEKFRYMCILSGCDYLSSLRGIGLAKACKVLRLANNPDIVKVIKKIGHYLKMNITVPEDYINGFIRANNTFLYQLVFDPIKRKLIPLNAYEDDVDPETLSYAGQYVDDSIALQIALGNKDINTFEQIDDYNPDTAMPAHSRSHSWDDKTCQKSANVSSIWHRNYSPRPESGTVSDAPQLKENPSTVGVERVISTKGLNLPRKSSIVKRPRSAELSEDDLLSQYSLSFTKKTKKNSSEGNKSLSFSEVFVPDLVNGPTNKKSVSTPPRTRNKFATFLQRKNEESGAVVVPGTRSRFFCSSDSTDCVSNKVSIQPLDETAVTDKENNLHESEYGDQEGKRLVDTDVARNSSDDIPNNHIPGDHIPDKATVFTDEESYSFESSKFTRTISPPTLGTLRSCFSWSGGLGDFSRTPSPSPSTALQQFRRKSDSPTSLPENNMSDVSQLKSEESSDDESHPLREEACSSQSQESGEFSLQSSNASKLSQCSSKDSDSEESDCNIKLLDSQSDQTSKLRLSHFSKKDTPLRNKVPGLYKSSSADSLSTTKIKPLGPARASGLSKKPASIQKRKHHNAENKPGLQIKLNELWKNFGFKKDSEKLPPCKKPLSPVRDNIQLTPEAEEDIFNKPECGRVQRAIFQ
UniProt P16157, sequence (whole entry, looked up): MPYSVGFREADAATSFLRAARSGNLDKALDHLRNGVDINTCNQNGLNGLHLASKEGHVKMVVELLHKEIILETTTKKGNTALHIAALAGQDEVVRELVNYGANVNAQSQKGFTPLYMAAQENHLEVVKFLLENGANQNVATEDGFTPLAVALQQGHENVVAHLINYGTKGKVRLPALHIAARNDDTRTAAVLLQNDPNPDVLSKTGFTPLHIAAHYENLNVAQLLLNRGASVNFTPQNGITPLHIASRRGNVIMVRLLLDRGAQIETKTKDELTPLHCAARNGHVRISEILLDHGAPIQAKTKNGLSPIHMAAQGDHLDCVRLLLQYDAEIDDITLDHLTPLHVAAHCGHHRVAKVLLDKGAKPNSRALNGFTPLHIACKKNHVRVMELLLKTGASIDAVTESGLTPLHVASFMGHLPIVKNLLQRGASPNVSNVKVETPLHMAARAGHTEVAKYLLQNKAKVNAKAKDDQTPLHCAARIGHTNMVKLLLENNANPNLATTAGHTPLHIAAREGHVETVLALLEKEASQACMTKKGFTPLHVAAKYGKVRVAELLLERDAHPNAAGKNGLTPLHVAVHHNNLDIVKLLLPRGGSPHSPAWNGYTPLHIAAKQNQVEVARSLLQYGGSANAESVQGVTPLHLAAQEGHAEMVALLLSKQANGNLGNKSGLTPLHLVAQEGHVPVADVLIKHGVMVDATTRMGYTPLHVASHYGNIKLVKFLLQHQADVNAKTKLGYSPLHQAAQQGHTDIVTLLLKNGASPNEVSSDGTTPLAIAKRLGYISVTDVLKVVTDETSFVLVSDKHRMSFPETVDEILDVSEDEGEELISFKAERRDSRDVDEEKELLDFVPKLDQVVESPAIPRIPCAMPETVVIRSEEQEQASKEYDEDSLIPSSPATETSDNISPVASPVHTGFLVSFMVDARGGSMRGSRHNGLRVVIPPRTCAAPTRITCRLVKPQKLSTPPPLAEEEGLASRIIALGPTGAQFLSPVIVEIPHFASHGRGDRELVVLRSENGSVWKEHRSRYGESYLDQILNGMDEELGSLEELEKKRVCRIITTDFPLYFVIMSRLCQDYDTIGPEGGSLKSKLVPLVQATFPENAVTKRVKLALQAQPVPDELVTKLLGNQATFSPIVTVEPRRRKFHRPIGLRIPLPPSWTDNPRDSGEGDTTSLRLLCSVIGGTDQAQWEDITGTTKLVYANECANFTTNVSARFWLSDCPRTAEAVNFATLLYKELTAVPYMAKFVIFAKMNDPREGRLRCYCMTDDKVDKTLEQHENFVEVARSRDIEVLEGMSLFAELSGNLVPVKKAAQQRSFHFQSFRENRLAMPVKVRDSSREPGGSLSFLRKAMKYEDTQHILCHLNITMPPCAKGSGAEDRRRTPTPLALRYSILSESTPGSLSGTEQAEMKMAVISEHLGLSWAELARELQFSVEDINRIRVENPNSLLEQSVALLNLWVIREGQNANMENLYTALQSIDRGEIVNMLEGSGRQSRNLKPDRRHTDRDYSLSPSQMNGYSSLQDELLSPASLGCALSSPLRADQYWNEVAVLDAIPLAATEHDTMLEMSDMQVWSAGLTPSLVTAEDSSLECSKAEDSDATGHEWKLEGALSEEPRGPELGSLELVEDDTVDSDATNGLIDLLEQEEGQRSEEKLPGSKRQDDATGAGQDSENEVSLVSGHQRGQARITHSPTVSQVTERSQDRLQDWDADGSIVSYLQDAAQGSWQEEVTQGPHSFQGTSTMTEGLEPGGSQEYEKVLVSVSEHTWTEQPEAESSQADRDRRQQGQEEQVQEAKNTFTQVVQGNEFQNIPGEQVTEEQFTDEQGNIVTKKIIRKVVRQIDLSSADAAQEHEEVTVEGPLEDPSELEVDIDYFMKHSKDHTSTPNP
UniProt Q99767, sequence (whole entry, unmodified, looked up): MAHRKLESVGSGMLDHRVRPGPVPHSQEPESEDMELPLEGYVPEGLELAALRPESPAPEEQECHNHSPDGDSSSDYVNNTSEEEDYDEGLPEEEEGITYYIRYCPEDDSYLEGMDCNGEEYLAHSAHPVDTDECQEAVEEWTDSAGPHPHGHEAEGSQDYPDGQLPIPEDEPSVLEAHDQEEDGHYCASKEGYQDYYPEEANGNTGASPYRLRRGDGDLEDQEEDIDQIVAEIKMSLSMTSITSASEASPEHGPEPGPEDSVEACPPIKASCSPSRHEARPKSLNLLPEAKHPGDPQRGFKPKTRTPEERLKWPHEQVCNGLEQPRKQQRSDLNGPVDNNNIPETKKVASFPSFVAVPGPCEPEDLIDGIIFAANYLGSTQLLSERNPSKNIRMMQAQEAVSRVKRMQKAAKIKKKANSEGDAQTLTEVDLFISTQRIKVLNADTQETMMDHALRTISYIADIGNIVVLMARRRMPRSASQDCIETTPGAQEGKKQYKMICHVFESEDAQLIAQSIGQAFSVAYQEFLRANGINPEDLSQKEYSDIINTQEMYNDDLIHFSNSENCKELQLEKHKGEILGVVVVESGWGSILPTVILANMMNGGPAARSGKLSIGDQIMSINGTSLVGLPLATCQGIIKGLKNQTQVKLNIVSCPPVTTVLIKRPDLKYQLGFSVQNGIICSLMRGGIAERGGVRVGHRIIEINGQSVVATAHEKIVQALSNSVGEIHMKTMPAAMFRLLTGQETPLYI
UniProt O55236, sequence (whole entry, unmodified, looked up): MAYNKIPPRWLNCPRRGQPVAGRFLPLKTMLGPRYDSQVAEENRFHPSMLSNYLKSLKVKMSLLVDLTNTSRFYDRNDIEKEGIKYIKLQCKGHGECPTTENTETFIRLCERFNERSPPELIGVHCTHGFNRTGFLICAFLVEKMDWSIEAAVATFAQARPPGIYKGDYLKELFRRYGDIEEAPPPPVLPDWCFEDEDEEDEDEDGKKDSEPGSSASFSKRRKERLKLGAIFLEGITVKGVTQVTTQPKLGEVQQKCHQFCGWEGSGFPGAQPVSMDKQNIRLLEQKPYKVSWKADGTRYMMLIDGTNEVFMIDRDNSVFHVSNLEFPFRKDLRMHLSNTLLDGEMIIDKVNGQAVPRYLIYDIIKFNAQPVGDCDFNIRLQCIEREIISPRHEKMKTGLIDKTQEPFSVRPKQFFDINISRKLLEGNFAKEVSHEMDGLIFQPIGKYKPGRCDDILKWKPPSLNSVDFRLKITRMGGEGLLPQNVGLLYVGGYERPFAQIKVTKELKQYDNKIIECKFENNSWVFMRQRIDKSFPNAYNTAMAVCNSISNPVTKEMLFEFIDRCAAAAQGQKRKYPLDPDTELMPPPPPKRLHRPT
UniProt Q16236, sequence (whole entry, unmodified, looked up): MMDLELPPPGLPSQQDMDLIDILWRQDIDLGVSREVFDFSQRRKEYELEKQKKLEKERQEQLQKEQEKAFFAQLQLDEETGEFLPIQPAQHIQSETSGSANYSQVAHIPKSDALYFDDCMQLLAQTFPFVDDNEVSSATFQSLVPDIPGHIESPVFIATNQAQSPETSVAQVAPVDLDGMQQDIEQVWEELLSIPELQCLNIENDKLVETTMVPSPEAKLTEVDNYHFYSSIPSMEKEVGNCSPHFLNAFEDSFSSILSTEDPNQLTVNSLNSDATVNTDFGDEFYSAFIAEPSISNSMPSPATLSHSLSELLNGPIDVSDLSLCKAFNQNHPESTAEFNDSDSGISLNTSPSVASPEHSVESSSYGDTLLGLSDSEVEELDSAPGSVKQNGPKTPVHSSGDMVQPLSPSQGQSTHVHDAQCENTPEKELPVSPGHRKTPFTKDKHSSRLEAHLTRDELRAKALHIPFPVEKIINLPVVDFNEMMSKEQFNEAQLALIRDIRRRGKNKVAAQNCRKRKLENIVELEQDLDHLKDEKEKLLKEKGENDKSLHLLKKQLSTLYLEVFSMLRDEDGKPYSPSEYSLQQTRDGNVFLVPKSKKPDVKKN

Molecule	tested on	assay	system	conditions	how to read	quantity	result
{TAMRA}-NNGQNGYENPTYKFFEQMQN (APP peptide residues 754-770 (Homo sapiens); N-terminal TAMRA)	APBA2 364-570 R455K/C483A/C501A/C566A (Homo sapiens, UniProt Q99767)	fluorescence polarisation	peptide	together with: TAMRA-labelled APP peptide 50 nM	–	binding	binds
EXO1 (Homo sapiens, UniProt Q9UQ84)	CTC1/STN1/TEN1 2-1217 K240E/Q241E/K242E	pull-down	–	–	–	binding	binds
GRRYVDATSIFDFMLN (POL1 1453-1468 M1459A (Saccharomyces cerevisiae, UniProt P13382); sequence looked up)	PRI1/PRI2 PRI1 1-409, PRI2 49-513 del382-384 (Saccharomyces cerevisiae)	pull-down	peptide	2 h, pH 7.0, 4 °C	–	binding	binds
KIF5A, Alexa 647 label (Mus musculus, UniProt P33175)	APC, SNAP-tag label (UniProt Q61315)	TIRF-M motility reconstitution	–	–	–	binding	binds
B1 (Nup98 732-880)	NUP82 1-452 C396S (Saccharomyces cerevisiae, UniProt P40368)	SEC	–	–	–	binding	binds
FAL1 (Saccharomyces cerevisiae, UniProt Q12099)	SGD1 (Saccharomyces cerevisiae, UniProt Q06132)	pull-down	–	–	–	binding	binds
B2 (CRYAB)	NFE2L2 del205-400 (UniProt Q16236)	pull-down	–	–	–	binding	binds
B3 (PAC1)	DYN1/DYN2/DYN3/PAC11 D2868K (Saccharomyces cerevisiae)	pull-down	–	–	–	binding	binds
B4 (DIS3 1-1001 D171N/D551N)	RRP45/SKI6/RRP43/RRP46/RRP42/MTR3/RRP4/RRP40/CSL4 Exo9 core 1-305 (Saccharomyces cerevisiae)	crystal structure	–	–	–	binding	binds
ANK1 (human, UniProt P16157)	SPTB (Homo sapiens, UniProt P11277)	far-Western	–	–	–	binding	binds
V[dP]IA (D-Pro2)	PC-12	protection from Aβ1–42 toxicity, MTT	–	concentration not given, 6 h, Aβ to peptide ratio 1:10, together with: Aβ1–42 2 µM	baseline: untreated cells	cell viability	89.2%
RVENRRAFLKLRRQQQIERELNGYMEWISKAEEVILAEDETDVEQ (CACNA1A 369-413 (Oryctolagus cuniculus, UniProt P27884); sequence looked up)	Cacnb2 17-416 M245A/L249A (Rattus norvegicus, UniProt Q8VGC3-2)	pull-down	–	–	–	binding	binds
B5 (RRP6 128-634)	Exo9 K132E/R206D/W278A (Saccharomyces cerevisiae, UniProt P46948)	reconstitution and purification	–	–	–	binding	binds
B6 (UGT1A9)	COc1cc(O)c2c(=O)c(O)c(-c3ccc(O)c(O)c3)oc2c1	steady-state kinetics	–	pH 7.4, 37 °C	–	Vmax/Km	45000 µL/min/mg
GHLSESSQVRWL (designed peptide)	APBA1 PDZ-1 648-746 C654S/C742S (UniProt Q02410)	ELISA	peptide	1 hour	–	binding	binds
B7 (CDKN1B 25-93 Y74E/Y88E/Y89E)	CDK4 1-303 del45-47/G43E/G44E (Homo sapiens, UniProt P11802)	X-ray crystallography	–	pH 7.0, 22 °C	–	binding	binds
fluorescein-SPT[pS]PSY[pS]PTS (POLR2A CTD peptide consensus heptads, 11-aa; N-fluorescein, pS4, pS8; fluorescein = fluorescein label (fluorescent) on the peptide N-terminus; pS = N[C@@H](COP(=O)(O)O)C(=O)O)	Rngtt 227-567 R330A/K331A/R386A (Mus musculus, UniProt O55236)	fluorescence polarisation	peptide	pH 7.0, 23 °C	–	binding	binds
B8 (BAK1 26-225 F60A/H61A)	HAESA/IDA HAESA ectodomain; IDA 15-621, hydroxyproline in IDA (Arabidopsis thaliana)	ITC	–	pH 5.0, 25 °C	–	binding	binds
Insulin human	–	–	rat, dorsal cortex	intranasal, 20 µg per nostril, 15 min	–	brain concentration	41.8 ± 25.6 pg/mg tissue
Transferrin	human IAPP	fibrillization, thioflavin T fluorescence	–	0.5 µM, pH 8.0, 37 °C, together with: 25 µM hIAPP	–	time to control fluorescence maximum	12 h
[Nva]VIA (Nva = CCC[C@H](N)C(=O)O)	PC-12	protection from Aβ1–42 toxicity, MTT	–	concentration not given, 6 h, Aβ to peptide ratio 1:5, together with: Aβ1–42 2 µM	baseline: untreated cells	cell viability	70%

Repeated from above:
Molecule	tested on	assay	system	conditions	how to read	quantity	result
EXO1 (Homo sapiens, UniProt Q9UQ84)	CTC1/STN1/TEN1 2-1217 K240E/Q241E/K242E	pull-down	–	–	–	binding	binds
GRRYVDATSIFDFMLN (POL1 1453-1468 M1459A (Saccharomyces cerevisiae, UniProt P13382); sequence looked up)	PRI1/PRI2 PRI1 1-409, PRI2 49-513 del382-384 (Saccharomyces cerevisiae)	pull-down	peptide	2 h, pH 7.0, 4 °C	–	binding	binds
